Results of several laboratories.
Numbered parts are unrelated; each lists some results of a single study. pIC50: −log10 of the molar value.
Chain of UniProt Q05655 (whole entry, looked up): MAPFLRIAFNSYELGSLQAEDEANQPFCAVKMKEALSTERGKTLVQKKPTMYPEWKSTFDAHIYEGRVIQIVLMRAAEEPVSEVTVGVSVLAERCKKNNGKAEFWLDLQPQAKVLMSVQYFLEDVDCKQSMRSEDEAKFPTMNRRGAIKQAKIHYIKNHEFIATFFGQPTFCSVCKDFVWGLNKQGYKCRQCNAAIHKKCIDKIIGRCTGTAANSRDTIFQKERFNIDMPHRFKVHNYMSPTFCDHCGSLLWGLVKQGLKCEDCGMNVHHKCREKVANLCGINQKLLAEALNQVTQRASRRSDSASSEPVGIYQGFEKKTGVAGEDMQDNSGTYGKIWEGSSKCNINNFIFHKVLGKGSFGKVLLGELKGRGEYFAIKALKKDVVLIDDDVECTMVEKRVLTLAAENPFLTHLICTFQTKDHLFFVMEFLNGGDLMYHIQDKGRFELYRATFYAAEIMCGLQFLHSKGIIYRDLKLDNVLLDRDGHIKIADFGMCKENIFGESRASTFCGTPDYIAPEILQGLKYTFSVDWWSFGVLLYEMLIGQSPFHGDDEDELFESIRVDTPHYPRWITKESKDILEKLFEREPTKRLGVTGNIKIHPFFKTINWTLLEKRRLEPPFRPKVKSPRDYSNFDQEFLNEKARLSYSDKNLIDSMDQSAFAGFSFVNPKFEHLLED
Chain of UniProt Q02779 (whole entry, looked up): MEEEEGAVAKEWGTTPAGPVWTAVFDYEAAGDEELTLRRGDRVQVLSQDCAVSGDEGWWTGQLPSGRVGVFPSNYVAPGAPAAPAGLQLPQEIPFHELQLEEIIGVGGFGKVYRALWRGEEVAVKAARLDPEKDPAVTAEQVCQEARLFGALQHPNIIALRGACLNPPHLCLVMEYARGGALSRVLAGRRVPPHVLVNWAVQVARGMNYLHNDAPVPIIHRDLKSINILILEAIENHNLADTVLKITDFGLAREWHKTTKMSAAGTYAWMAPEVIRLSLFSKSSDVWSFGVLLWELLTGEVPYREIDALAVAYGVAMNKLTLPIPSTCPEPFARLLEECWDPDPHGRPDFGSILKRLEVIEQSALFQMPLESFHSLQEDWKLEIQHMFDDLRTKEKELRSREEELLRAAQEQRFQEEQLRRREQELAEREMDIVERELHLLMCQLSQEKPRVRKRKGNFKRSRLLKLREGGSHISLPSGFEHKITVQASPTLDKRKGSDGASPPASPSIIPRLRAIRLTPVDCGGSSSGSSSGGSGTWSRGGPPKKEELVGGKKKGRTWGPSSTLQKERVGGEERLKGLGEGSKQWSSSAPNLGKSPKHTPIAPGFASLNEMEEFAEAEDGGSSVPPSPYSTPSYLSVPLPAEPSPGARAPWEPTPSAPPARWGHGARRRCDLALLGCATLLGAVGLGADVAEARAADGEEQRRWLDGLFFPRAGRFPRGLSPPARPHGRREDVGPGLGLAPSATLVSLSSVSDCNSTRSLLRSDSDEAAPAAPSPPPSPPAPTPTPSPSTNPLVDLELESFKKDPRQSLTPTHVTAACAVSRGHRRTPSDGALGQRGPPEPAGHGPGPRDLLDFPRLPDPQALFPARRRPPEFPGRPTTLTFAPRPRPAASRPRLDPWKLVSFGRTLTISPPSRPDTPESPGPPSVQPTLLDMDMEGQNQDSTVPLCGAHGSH
Chain of UniProt P50750 (whole entry, looked up): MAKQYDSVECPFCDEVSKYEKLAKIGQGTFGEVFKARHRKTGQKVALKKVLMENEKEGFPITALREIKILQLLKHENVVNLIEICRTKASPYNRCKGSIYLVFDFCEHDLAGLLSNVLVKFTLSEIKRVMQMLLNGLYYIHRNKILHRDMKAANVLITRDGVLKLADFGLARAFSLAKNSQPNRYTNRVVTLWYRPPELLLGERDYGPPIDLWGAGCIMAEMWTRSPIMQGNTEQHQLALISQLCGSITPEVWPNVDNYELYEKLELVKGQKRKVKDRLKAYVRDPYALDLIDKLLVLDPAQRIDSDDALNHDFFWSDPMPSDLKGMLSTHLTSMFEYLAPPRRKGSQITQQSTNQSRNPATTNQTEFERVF

Study 1
Compound: CC[n+]1c(/C=C/N(C)c2ccccc2)n(-c2ccccc2)c2ccc(-c3nc4ccccc4s3)cc21
Effect on: enzyme activity
Action: inhibitor
Tested at: 0.5 µM
Baseline: control
target	remaining activity [%]
cGMP-dependent protein kinase 1 (PRKG1, Homo sapiens, UniProt Q13976)	104
Serine/threonine-protein kinase Nek4 (NEK4, Homo sapiens, UniProt P51957)	90.5
Serine/threonine-protein kinase PLK2 (PLK2, Homo sapiens, UniProt Q9NYY3)	93.1
RAC-gamma serine/threonine-protein kinase (AKT3, Homo sapiens, UniProt Q9Y243)	109
Serine/threonine-protein kinase Chk1 (CHEK1, Homo sapiens, UniProt O14757)	103
Casein kinase II subunit alpha (CSNK2A1, Homo sapiens, UniProt P68400)	96.8
Mitogen-activated protein kinase 13 (MAPK13, Homo sapiens, UniProt O15264)	102
Dual specificity mitogen-activated protein kinase kinase 6 (MAP2K6, Homo sapiens, UniProt P52564)	103
Mitogen-activated protein kinase kinase kinase kinase 2 (MAP4K2, Homo sapiens, UniProt Q12851)	103
MAP kinase-interacting serine/threonine-protein kinase 2 (MKNK2, Homo sapiens, UniProt Q9HBH9)	97.4
Cyclin-dependent kinase 9, with cyclin T1 (CDK9, Homo sapiens, UniProt P50750)	89.5
Tyrosine-protein kinase Lyn (LYN, Homo sapiens, UniProt P07948)	100
Mast/stem cell growth factor receptor Kit (KIT, Homo sapiens, UniProt P10721)	104
Interleukin-1 receptor-associated kinase 4 (IRAK4, Homo sapiens, UniProt Q9NWZ3)	173
Casein kinase I isoform alpha (CSNK1A1, Homo sapiens, UniProt P48729)	106
Tyrosine-protein kinase BTK (BTK, Homo sapiens, UniProt Q06187)	91.6
Ephrin type-A receptor 5 (EPHA5, Homo sapiens, UniProt P54756)	100
Protein kinase C iota type (PRKCI, Homo sapiens, UniProt P41743)	90.1
Mitogen-activated protein kinase kinase kinase 10 (MAP3K10, Homo sapiens, UniProt Q02779)	103
Protein kinase C delta type (PRKCD, Homo sapiens, UniProt Q05655)	93.3
Leucine-rich repeat serine/threonine-protein kinase 2 (LRRK2, Homo sapiens, UniProt Q5S007)	95.5
Mitogen-activated protein kinase 12 (MAPK12, Homo sapiens, UniProt P53778)	105

Study 2
Target: Synaptic vesicular amine transporter (SLC18A2, Homo sapiens, UniProt Q05940)
Chain of UniProt Q05940 (whole entry, looked up): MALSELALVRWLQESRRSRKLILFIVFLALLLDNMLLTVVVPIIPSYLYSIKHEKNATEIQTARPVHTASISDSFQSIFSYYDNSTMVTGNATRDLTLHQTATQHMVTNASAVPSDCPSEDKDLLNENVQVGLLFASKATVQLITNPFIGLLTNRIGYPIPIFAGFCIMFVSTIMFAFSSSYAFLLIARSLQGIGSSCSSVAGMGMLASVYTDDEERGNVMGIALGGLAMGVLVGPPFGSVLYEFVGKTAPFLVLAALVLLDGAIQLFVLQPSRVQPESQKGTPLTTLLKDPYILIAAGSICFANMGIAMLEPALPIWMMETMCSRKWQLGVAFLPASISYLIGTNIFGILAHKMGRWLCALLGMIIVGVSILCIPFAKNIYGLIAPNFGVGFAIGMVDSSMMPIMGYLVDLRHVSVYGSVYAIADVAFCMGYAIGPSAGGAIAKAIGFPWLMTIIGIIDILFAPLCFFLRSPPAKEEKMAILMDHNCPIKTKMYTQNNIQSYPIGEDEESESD
Effect on: transporter inhibition
Action: inhibitor
Compound	pIC50
O=C1CN(/N=C/c2ccc([N+](=O)[O-])o2)C(=O)N1	< 5.00
O=C1CC2(CCCC2)CC(=O)N1CCCCN1CCN(c2ncccn2)CC1	5.66
CNCCCC12CCC(c3ccccc31)c1ccccc12	5.94
Oc1ccc(CCCCNC[C@H](O)c2ccc(O)c(O)c2)cc1	7.70
CCCCN(CCCC)CCC(O)c1cc2c(Cl)cc(Cl)cc2c2cc(C(F)(F)F)ccc12 (stereo not shown)	6.03
CNCCC=C1c2ccccc2CCc2ccccc21	5.17
CNCC[C@H](Oc1cccc2ccccc12)c1cccs1	5.52

Study 3
Target: DNA polymerase theta, helicase domain (POLQ, Homo sapiens, UniProt O75417)
Chain of UniProt O75417 (whole entry, looked up): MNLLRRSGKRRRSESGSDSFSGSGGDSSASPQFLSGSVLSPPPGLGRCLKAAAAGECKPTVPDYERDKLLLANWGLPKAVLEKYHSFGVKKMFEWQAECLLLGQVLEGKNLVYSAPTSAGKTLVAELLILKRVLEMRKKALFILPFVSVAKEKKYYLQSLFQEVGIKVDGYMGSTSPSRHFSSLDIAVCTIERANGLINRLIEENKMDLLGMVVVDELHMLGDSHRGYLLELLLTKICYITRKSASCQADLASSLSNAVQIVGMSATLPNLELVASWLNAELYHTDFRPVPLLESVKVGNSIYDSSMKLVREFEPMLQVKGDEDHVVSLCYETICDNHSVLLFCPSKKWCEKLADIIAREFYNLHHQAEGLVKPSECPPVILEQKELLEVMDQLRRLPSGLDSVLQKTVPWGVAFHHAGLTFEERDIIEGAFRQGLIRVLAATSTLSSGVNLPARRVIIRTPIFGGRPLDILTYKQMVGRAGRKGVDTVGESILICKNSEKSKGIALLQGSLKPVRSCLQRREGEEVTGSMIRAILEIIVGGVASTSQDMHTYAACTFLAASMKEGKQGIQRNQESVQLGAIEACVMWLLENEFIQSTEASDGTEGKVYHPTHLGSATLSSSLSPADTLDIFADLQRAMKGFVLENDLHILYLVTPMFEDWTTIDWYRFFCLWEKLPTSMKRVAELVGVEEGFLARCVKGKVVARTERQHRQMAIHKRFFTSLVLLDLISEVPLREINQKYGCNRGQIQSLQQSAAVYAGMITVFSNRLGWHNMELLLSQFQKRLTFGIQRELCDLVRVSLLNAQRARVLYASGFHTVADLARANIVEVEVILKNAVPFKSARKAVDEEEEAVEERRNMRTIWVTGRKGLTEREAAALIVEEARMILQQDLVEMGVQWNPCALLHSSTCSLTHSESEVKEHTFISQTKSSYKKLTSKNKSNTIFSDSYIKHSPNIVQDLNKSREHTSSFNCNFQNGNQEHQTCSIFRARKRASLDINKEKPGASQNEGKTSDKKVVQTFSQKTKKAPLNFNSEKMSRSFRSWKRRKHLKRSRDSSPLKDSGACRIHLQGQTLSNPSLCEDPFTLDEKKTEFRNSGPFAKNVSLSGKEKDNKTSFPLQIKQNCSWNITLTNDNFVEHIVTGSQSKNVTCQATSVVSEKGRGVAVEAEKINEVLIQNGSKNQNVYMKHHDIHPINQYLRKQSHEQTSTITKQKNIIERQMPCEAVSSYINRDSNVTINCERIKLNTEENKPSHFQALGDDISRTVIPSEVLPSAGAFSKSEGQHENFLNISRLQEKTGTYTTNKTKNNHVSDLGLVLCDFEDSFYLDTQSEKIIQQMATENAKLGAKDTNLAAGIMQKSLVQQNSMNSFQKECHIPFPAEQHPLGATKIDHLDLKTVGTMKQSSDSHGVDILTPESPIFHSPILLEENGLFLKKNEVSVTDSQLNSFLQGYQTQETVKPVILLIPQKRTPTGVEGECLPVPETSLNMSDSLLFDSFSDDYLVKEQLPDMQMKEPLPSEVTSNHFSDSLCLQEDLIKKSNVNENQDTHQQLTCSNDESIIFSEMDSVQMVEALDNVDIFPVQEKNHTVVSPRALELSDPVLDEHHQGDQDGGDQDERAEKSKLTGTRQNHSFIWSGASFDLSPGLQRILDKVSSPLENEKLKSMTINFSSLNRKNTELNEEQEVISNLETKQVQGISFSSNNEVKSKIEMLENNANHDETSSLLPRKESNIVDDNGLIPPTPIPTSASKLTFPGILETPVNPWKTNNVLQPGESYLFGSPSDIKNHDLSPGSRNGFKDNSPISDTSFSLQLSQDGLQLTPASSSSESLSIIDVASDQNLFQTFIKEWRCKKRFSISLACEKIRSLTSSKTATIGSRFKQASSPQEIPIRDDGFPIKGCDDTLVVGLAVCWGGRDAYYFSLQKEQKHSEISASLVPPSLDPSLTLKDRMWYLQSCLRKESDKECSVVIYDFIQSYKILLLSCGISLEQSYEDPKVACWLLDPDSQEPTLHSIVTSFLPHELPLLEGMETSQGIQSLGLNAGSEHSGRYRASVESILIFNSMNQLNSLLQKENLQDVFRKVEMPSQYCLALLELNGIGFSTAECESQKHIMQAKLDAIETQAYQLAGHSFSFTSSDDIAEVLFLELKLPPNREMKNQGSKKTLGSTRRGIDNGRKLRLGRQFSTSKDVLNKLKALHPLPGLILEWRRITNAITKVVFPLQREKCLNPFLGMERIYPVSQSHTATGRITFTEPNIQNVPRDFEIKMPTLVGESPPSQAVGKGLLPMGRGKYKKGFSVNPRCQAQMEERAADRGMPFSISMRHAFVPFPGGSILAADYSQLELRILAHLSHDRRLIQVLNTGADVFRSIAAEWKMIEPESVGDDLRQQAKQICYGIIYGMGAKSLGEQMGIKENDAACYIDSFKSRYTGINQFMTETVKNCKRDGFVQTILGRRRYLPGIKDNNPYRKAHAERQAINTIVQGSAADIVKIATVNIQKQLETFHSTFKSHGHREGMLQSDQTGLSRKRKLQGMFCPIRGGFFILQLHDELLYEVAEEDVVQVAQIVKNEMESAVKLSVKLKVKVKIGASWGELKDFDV
Effect on: enzyme activity
Tested at: concentration not given
Notes: without ssDNA
Compound	remaining activity
COc1cc(NC(=O)CSc2ncc(S(=O)(=O)c3ccc(Br)cc3)c(=O)[nH]2)cc(OC)c1	96.3%
Cc1ccc(C(=O)Nc2ccc(S(=O)(=O)[O-])c3cc(S(=O)(=O)[O-])cc(S(=O)(=O)[O-])c23)cc1NC(=O)c1cccc(NC(=O)Nc2cccc(C(=O)Nc3cc(C(=O)Nc4ccc(S(=O)(=O)[O-])c5cc(S(=O)(=O)[O-])cc(S(=O)(=O)[O-])c45)ccc3C)c2)c1.[Na+].[Na+].[Na+].[Na+].[Na+].[Na+]	14.5%
COc1cc2c(cc1Cc1cccc(Cl)c1F)c(=O)c(C(=O)O)cn2[C@H](CO)C(C)C	33%
Cc1ccc(-c2n[nH]c3c2C(c2cccc(O)c2)N(c2ccc(C(=O)O)cc2)C3=O)cc1 (stereo not shown)	58.1%
O=C(Nc1ccccc1F)c1ccc2c(Cl)c3c(nc2c1)CCC3	84.2%
COC(=O)[C@]12CCC(C)(C)C[C@H]1[C@H]1C(=O)C=C3[C@@]4(C)C=C(C#N)C(=O)C(C)(C)[C@@H]4CC[C@@]3(C)[C@]1(C)CC2	89.2%
CCC(C)(Oc1ccc(C2(c3ccc(OC(C)(CC)C(=O)O)cc3)CCCCC2)cc1)C(=O)O (stereo not shown)	128%
Cc1ccc(C2C=C(c3ccccc3)N=C3N=C(NS(C)(=O)=O)NN32)cc1 (stereo not shown)	89.4%

Study 4
SMILES: COc1ccc2c(c1)O[C@H](c1ccc(OC)c(OC)c1)C[C@@H]2NC(=O)C1(c2ccc3c(c2)OC(F)(F)O3)CC1
Effect on: cell-free assay
Tested at: 10 µM
target	inhibition [%]
Muscarinic acetylcholine receptor M5 (CHRM5, Homo sapiens, UniProt P08912)	2.95
Alpha-1A adrenergic receptor (ADRA1A, Homo sapiens, UniProt P35348)	-10.2
5-hydroxytryptamine receptor 7 (HTR7, Homo sapiens, UniProt P34969)	-22.9
5-hydroxytryptamine receptor 6 (HTR6, Homo sapiens, UniProt P50406)	-7.58
Sigma non-opioid intracellular receptor 1 (SIGMAR1, Homo sapiens, UniProt Q99720)	82.8
5-hydroxytryptamine receptor 3A (HTR3A, Homo sapiens, UniProt P46098)	-1.13
Alpha-2A adrenergic receptor (ADRA2A, Homo sapiens, UniProt P08913)	17.6
Histamine H1 receptor (HRH1, Homo sapiens, UniProt P35367)	22.3
D(1A) dopamine receptor (DRD1, Homo sapiens, UniProt P21728)	29.2

A few entries again (study 1):
target	remaining activity [%]
Serine/threonine-protein kinase Nek4 (NEK4, Homo sapiens, UniProt P51957)	90.5
Serine/threonine-protein kinase PLK2 (PLK2, Homo sapiens, UniProt Q9NYY3)	93.1
RAC-gamma serine/threonine-protein kinase (AKT3, Homo sapiens, UniProt Q9Y243)	109
Serine/threonine-protein kinase Chk1 (CHEK1, Homo sapiens, UniProt O14757)	103
Casein kinase II subunit alpha (CSNK2A1, Homo sapiens, UniProt P68400)	96.8
Mitogen-activated protein kinase 13 (MAPK13, Homo sapiens, UniProt O15264)	102
Dual specificity mitogen-activated protein kinase kinase 6 (MAP2K6, Homo sapiens, UniProt P52564)	103
